# Experimental data of several laboratories.
# Protocols differ between the studies behind these lines. Numbers after ± are the reported error.
# Cell line: RAW264.7
Compound,observed,method,tested at,time,added,viability
COc1ccc2c(oc3c4ccc(O)cc4oc(=O)c23)c1CC=C(C)C,,MTT,concentration not given,,,98.6 ± 1.6%
Cc1ccc(CN2C(=O)/C(=N\c3ccc(Cl)cc3Br)c3ccccc32)cc1,,,up to 5 µM,48 h,,no effect
COc1ccc(-c2coc3c(CC=C(C)C)c(O)c(CC=C(C)C)c(O)c3c2=O)cc1O,cell growth or viability,MTT,100 µg/mL,24 h,,5.12%
CC(=O)O[C@@H]1CC[C@@]2(C)C(CC[C@]3(C)C2C(=O)C=C2C4[C@@H](C)[C@H](C)CC[C@]4(C)CC[C@]23C)[C@@]1(C)C(=O)N/N=C\c1ccc2c(c1)OCO2 (stereo partly drawn),cell growth or viability,MTT,25 µM,24 h,,98%
CC(C)=CCc1c(O)c(CC=C(C)C)c2occ(-c3ccc(O)c(O)c3)c(=O)c2c1O,cell growth or viability,MTT,6.25 µg/mL,24 h,,113%
COc1c(CC=C(C)C)c(O)cc2c1[C@@H]1Oc3c(ccc(O)c3CC=C(C)C)[C@@H]1CO2,,MTT,concentration not given,,,2.9 ± 0.6%
NS(=O)(=O)c1ccc(-n2cc(CNc3ccccc3)c(-c3ccc(OCc4ccccc4)cc3)n2)cc1,,MTT,20 µM,24 h,LPS,59 ± 2.84%
CCC(=O)NCc1ccccc1,cell growth or viability,MTT,200 µM,24 h,,101%
COc1c2c(cc3c1[C@@H]1Oc4c(ccc(O)c4CC=C(C)C)[C@@H]1CO3)OC(C)(C)C=C2,,MTT,concentration not given,,,2.8 ± 0.1%
Cc1ccc(C(C)C)c(O)c1,cell growth or viability,MTT,25 µM,24 h,,98%
Fc1ccc(NCc2cn(-c3ccccc3)nc2-c2ccc(OCc3ccccc3)cc2)cc1,,MTT,20 µM,24 h,LPS,73 ± 1.18%
COc1ccc2c(c1CC=C(C)C)O[C@H]1c3cc4c(cc3OC[C@@]21O)OC(C)(C)C=C4,,MTT,concentration not given,,,95.1 ± 0.7%
CC(=O)O[C@@H]1CC[C@@]2(C)C(CC[C@]3(C)C2C(=O)C=C2C4[C@@H](C)[C@H](C)CC[C@]4(C)CC[C@]23C)[C@@]1(C)C(=O)N/N=C\C=Cc1ccccc1 (stereo partly drawn),cell growth or viability,MTT,25 µM,24 h,,102%
CC(C)=CCc1cc(-c2coc3cc(O)c(CC=C(C)C)c(O)c3c2=O)ccc1O,,MTT,concentration not given,,,3.8 ± 0.1%
COc1cccc(/C=N\NC(=O)[C@]2(C)C3CC[C@]4(C)C(C(=O)C=C5C6[C@@H](C)[C@H](C)CC[C@]6(C)CC[C@]54C)[C@@]3(C)CC[C@H]2OC(C)=O)c1 (stereo partly drawn),cell growth or viability,MTT,25 µM,24 h,,94%
CC(C)=CCc1cc([C@@H]2CC(=O)c3c(O)cc(O)c(CC=C(C)C)c3O2)cc(CC=C(C)C)c1O,,MTT,concentration not given,,,3.67 ± 0.9%
C=CCc1ccc(OC(=O)COC(=O)[C@]2(C)C3CC[C@]4(C)C(C(=O)C=C5C6[C@@H](C)[C@H](C)CC[C@]6(C)CC[C@]54C)[C@@]3(C)CC[C@H]2OC(C)=O)c(OC)c1 (stereo partly drawn),cell growth or viability,MTT,25 µM,24 h,,96%
Clc1ccccc1NCc1cn(-c2ccccc2)nc1-c1ccc(OCc2ccccc2)cc1,,MTT,20 µM,24 h,LPS,71 ± 2.35%
COc1cc(/C=N\NC(=O)[C@]2(C)C3CC[C@]4(C)C(C(=O)C=C5C6[C@@H](C)[C@H](C)CC[C@]6(C)CC[C@]54C)[C@@]3(C)CC[C@H]2OC(C)=O)cc(OC)c1OC (stereo partly drawn),cell growth or viability,MTT,25 µM,24 h,,95%
CC(C)=CCc1cc(-c2coc3cc(O)c(CC=C(C)C)c(O)c3c2=O)ccc1O,cell growth or viability,MTT,6.25 µg/mL,24 h,,124%
CC(=O)O[C@@H]1CC[C@@]2(C)C(CC[C@]3(C)C2C(=O)C=C2C4[C@@H](C)[C@H](C)CC[C@]4(C)CC[C@]23C)[C@@]1(C)C(=O)OCC(=O)O[C@@H]1C[C@H](C)CC[C@H]1C(C)C (stereo partly drawn),cell growth or viability,MTT,25 µM,24 h,,93%
COc1cc2c(cc1O)[C@]1(O)C(=O)c3c(O)cc4c(c3O[C@@H]1CO2)C=CC(C)(C)O4,cell growth or viability,MTT,25 µg/mL,24 h,,27%
CC(=O)O[C@@H]1CC[C@@]2(C)C(CC[C@]3(C)C2C(=O)C=C2C4[C@@H](C)[C@H](C)CC[C@]4(C)CC[C@]23C)[C@@]1(C)C(=O)N/N=C\c1ccccc1 (stereo partly drawn),cell growth or viability,MTT,25 µM,24 h,,92%
Brc1ccc(NCc2cn(-c3ccccc3)nc2-c2ccc(OCc3ccccc3)cc2)cc1,,MTT,20 µM,24 h,LPS,41 ± 2.84%

# Some of these lines once more:
Compound,observed,method,tested at,time,added,viability
COc1cc(/C=N\NC(=O)[C@]2(C)C3CC[C@]4(C)C(C(=O)C=C5C6[C@@H](C)[C@H](C)CC[C@]6(C)CC[C@]54C)[C@@]3(C)CC[C@H]2OC(C)=O)cc(OC)c1OC (stereo partly drawn),cell growth or viability,MTT,25 µM,24 h,,95%
CC(C)=CCc1cc(-c2coc3cc(O)c(CC=C(C)C)c(O)c3c2=O)ccc1O,cell growth or viability,MTT,6.25 µg/mL,24 h,,124%
